Experimental data collected from several papers.
Every numbered part comes from another study and shows a few of its results, in no order.
Chain of UniProt P05164 (whole entry, looked up): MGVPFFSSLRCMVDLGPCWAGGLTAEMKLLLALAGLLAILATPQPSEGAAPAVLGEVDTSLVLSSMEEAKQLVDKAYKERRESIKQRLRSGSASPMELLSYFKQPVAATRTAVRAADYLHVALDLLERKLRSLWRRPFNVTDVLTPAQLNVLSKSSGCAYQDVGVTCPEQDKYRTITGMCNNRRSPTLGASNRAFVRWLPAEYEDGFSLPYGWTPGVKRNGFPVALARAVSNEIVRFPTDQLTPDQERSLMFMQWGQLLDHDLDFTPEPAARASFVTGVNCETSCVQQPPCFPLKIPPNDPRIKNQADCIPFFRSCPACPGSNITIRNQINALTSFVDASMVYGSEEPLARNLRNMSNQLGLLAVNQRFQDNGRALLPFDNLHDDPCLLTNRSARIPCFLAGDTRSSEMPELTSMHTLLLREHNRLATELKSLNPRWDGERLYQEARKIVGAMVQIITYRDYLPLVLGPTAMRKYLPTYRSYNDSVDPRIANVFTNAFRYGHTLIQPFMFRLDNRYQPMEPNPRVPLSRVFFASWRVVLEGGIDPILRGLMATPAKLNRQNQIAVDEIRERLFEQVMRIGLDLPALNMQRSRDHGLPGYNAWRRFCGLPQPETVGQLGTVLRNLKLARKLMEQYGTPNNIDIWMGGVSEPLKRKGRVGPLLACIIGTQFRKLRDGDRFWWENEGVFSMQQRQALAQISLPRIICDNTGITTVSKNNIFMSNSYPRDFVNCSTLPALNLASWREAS

Series 1
SMILES: C[C@@H]1CN(c2ccc(-c3cc(C(=O)NCCOCCOCCOCCOCCNC(=O)/C=C/c4[nH]cc(C(=O)N[C@@H](CC(N)=O)c5ccc(F)c(Cl)c5)c4-c4ccc(Cl)cc4F)ccc3F)cc2NC(=O)c2c[nH]c(=O)cc2C(F)(F)F)C[C@H](C)N1C
Read-out: thermal unfolding
Method: differential scanning fluorimetry
Concentration: 5.5 µM
Reading: higher = more unfolded
DCAF1: DDB1- and CUL4-associated factor 1 (DCAF1, Homo sapiens, UniProt Q9Y4B6)
Chain of UniProt Q9Y4B6 (whole entry, looked up): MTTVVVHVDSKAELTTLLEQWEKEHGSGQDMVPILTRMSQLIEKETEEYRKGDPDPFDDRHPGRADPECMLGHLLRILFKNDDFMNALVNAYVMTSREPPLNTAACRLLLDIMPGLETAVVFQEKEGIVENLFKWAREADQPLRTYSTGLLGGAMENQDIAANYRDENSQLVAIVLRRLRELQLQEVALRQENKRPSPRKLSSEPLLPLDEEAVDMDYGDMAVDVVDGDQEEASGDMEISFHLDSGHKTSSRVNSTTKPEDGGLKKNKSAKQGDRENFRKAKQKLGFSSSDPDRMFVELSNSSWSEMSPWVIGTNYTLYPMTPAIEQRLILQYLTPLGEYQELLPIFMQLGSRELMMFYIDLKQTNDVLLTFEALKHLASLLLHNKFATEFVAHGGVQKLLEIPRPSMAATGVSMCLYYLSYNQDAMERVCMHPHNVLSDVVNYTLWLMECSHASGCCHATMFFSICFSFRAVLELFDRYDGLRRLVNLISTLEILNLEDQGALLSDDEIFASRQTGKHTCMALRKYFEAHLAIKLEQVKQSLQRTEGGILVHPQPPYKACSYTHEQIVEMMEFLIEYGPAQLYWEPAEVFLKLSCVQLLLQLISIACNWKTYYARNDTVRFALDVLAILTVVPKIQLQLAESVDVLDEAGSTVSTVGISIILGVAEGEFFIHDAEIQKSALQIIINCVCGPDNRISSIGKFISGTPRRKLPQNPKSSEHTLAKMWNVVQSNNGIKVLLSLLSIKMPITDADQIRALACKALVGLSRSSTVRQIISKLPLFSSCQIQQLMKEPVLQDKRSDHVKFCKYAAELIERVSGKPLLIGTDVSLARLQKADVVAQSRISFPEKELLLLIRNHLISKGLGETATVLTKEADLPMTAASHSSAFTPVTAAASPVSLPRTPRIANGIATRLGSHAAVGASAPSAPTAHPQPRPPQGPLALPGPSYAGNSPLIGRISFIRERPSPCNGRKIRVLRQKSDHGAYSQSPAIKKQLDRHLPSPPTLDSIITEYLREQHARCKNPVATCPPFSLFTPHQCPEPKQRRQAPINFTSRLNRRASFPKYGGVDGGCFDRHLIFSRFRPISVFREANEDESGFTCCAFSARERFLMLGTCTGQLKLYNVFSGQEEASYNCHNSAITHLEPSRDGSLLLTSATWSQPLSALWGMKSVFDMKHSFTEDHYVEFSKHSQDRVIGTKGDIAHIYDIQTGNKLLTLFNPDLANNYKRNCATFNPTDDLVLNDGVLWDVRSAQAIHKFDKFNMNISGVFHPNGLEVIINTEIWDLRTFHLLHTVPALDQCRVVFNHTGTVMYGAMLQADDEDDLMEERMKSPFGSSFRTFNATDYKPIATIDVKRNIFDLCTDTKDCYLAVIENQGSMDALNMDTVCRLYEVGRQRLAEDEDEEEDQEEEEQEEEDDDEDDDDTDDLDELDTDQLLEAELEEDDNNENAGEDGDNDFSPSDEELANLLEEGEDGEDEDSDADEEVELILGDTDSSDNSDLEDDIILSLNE
WDR5: WD repeat-containing protein 5 (WDR5, Homo sapiens, UniProt P61964)
For DCAF1; 71.01 °C: “SYPRO Orange fluorescence” read 54600 a.u.
WDR5; 38.6 °C — “SYPRO Orange fluorescence”: 14100 a.u.
For WDR5; 30 °C: “SYPRO Orange fluorescence” read 12700 a.u.
For WDR5; 40.6 °C: “SYPRO Orange fluorescence” read 13900 a.u.
It gave 51000 a.u. for “SYPRO Orange fluorescence” (WDR5; 84.21 °C).
The “SYPRO Orange fluorescence” was 14900 a.u. (WDR5; 62.01 °C).
WDR5; 56.81 °C — “SYPRO Orange fluorescence”: 16600 a.u.
The “SYPRO Orange fluorescence” was 35500 a.u. (DCAF1; 89.61 °C).

Series 2
SMILES: CCN1/C(=C/C=C2\CCCC(/C=C/C3=[N+](CC)c4ccccc4C3(C)C)=C2NCCCCCCCCN2CCC(Nc3nc4ccccc4n3Cc3ccc(F)cc3)CC2)C(C)(C)c2ccccc21
Cell line: U-87 MG
Concentration: concentration not given
Baseline: DMSO
The “log2 fold change” was -1.03 (item: C4orf33 mRNA).
It gave 1.37 for “log2 fold change” (item: KLHL29 mRNA).
item: CALHM2 mRNA — “log2 fold change”: -1.66.
item: CCDC74A mRNA — “log2 fold change”: -0.967.
It gave 1.07 for “log2 fold change” (item: PRX mRNA).
For item: ADNP2 mRNA: “log2 fold change” read 0.837.
The “log2 fold change” was -1.72 (item: CDC25A mRNA).
It gave -1.9 for “log2 fold change” (item: PIMREG mRNA).
item: TNFSF8 mRNA — “log2 fold change”: 4.19.
item: CPEB4 mRNA — “log2 fold change”: 1.47.
It gave 2.07 for “log2 fold change” (item: ZC3H12C mRNA).

Series 3
Structure (SMILES): Cc1ccc(O)c(C)c1-c1cnc2[nH]c(-c3cnc(N4CCC(CN5CCN(c6ccc7c(c6F)CN(C6CCC(=O)NC6=O)C7=O)CC5)CC4)nc3)cc2c1C#N (stereo not shown)
Target: Membrane-associated tyrosine- and threonine-specific cdc2-inhibitory kinase (PKMYT1, Homo sapiens, UniProt Q99640)
Construct (Q99640 1-499): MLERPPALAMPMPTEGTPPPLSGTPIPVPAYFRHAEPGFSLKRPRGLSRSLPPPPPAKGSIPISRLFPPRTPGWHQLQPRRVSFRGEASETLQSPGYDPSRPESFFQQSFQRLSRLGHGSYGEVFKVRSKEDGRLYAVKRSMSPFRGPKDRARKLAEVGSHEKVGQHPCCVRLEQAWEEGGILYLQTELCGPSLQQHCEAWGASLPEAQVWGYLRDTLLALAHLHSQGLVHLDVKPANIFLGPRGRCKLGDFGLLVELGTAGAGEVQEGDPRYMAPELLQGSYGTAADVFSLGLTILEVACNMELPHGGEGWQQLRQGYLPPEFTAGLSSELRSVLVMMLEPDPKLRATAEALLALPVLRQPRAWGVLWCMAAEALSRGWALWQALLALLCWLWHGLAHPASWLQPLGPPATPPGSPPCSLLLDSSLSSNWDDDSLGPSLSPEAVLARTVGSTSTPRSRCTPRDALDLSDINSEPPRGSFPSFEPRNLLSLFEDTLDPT
cell-free assay, inhibitor, TR-FRET; 0.1111 µM — inhibition: 98.5%.
It gave 85.7% for inhibition (cell-free assay, inhibitor, TR-FRET; 12.35 nM).
The inhibition was -3.08% (cell-free assay, inhibitor, TR-FRET; 460 pM).
cell-free assay, inhibitor, TR-FRET; 152 pM — inhibition: -7.63%.
1 µM — inhibition: 99.1%.
For 0.00137 µM: inhibition read 14.2%.
5.1e-05 µM — inhibition: -7.65%.
The inhibition was 98.5% (cell-free assay, inhibitor, TR-FRET; 0.3333 µM).

Further values, each from its own experiment
For `NC/C(=C\F)COc1ccc(Cn2c(=S)[nH]c(=O)c3[nH]cnc32)cc1`, the inhibition was -2.86% (Myeloperoxidase (MPO, Homo sapiens, UniProt P05164); enzyme activity, inhibitor, fluorescence; 0.3704 µM).

For quick reference, copied from above (series 2):
For item: ADNP2 mRNA: “log2 fold change” read 0.837.
It gave 1.07 for “log2 fold change” (item: PRX mRNA).
The “log2 fold change” was -1.72 (item: CDC25A mRNA).
